Published values gathered from unrelated publications.
Protocols differ between the studies behind these lines.
Sequence of UniProt Q9UBN7 (whole entry, looked up): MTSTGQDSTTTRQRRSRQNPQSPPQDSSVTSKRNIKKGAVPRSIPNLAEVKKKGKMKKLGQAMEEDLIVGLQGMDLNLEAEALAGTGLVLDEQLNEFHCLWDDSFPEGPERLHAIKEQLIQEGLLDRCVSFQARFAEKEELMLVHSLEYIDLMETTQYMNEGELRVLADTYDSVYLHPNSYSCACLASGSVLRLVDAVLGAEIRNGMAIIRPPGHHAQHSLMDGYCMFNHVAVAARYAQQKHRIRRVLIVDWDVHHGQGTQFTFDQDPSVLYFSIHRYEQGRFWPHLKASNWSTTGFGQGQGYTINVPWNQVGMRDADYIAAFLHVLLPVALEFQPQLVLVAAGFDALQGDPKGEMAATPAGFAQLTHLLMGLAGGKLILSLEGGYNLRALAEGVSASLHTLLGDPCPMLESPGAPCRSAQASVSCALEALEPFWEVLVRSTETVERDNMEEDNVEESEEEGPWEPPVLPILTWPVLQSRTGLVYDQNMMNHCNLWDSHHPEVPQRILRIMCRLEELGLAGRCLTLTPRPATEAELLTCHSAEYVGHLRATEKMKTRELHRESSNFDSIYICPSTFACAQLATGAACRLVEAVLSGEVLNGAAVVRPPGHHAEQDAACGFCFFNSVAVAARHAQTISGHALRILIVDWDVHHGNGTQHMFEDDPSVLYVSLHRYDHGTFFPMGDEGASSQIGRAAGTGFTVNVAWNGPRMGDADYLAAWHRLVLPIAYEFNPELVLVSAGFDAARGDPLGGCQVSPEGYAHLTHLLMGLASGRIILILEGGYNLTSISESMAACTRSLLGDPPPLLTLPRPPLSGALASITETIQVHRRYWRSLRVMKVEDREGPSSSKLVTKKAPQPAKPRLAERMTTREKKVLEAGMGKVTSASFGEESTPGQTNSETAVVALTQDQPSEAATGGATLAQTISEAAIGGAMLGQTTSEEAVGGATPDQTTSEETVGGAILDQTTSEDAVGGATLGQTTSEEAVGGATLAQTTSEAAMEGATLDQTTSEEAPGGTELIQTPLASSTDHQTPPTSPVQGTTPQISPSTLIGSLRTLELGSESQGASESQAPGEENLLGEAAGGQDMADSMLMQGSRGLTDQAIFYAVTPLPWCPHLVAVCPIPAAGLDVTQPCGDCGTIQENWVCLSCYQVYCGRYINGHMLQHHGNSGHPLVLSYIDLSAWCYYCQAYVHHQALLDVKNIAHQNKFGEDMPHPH
Sequence of UniProt Q92995 (whole entry, looked up): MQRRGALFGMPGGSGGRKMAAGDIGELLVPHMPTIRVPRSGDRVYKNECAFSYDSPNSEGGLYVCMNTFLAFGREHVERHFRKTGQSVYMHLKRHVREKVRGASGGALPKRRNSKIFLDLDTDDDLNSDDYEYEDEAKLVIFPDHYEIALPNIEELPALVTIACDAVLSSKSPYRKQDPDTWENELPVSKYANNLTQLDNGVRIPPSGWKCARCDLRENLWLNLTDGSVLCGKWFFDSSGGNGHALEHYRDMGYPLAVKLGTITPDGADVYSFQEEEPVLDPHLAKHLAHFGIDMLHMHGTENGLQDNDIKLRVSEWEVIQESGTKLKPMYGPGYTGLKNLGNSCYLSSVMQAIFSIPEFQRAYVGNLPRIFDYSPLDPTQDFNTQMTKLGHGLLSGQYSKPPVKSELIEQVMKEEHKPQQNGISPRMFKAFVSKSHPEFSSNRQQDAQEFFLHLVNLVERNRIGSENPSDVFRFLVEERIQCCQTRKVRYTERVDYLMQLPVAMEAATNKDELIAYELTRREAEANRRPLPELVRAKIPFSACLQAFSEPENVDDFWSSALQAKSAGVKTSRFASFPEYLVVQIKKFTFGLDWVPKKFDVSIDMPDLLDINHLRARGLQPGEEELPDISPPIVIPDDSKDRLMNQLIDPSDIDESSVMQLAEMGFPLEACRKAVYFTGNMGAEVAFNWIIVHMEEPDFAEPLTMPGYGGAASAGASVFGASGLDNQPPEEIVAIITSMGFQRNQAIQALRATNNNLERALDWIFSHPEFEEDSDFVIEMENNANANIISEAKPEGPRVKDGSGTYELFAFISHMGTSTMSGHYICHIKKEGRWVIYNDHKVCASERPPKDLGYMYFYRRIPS

O=C(O)Cc1nc2ccccc2o1
Kd (Ubiquitin carboxyl-terminal hydrolase 13, ZnF-UBD domain (USP13, Homo sapiens, UniProt Q92995)): 278 µM

N#Cc1ccc2c(c1)[C@H]1CCCN(C(=O)c3ccc4[nH]cnc4c3)[C@H]1C2
change from baseline (measured: androstenedione; human male, Phase II trial; oral, 80 mg once daily, HPA axis, mean): 2.76 nmol/L

C[C@H]1C[C@H]2CSC(N)=N[C@@]2(c2nc(NC(=O)c3ccc(OC(F)F)cn3)cs2)CO1
percent change from baseline (measured: total Aβ; healthy adults, plasma; 540 mg single dose, 48 h post-dose; reference: placebo): -65.2%

OC(CCN1CCCCC1)(c1ccccc1)C1CC2C=CC1C2 (stereo not drawn)
power, delta EEG, O2-Pz (resting-state EEG; healthy elderly humans; oral, 2 mg, eyes open, LS mean): 7.8 µV²

Cn1cc(-c2ccc(-c3cncc(Cl)c3N3CCC4(CCNC4=O)CC3)cc2)cn1
fold change in expression (COLO 205; microarray, measured: ITPR1; concentration not given, 6 h, gene set IP3R1; reference: untreated cells): 2.31

O=C(O)CNC(=O)Cc1ccccc1
sarcomere length (ventricular cardiomyocytes, C57BL/6 mouse; dose not given, 0.228 s): 1.63 µm

NC(=O)c1cnc2[nH]ccc2c1N[C@@H]1[C@@H]2CC3C[C@H]1C[C@@](O)(C3)C2
change from baseline (flow cytometry, measured: regulatory T cells; Japanese healthy subjects, peripheral blood; oral, 100 mg twice daily, day 4): -0.52%

CC(C)NCC(O)c1ccc(O)c(O)c1 (stereo not drawn)
sarcomere length (ventricular cardiomyocytes, C57BL/6 mouse; dose not given, 0.668 s): 1.72 µm

c1ccc(-c2n[nH]cc2-c2ccnc3ccccc23)nc1
log2 fold change (kinase binding, competitor, MIB/MS competition, measured: IRE1; Candida albicans cell lysate; 100 nM; reference: DMSO): 1.08

COc1cc2cc(-c3ccc(CC(=O)Nc4cc(C(C)(C)C(F)(F)F)no4)cn3)cnc2cc1OC
partial response as best response (RECIST v1.1; RET-altered advanced solid tumour patients; oral, 100 mg once daily, phase I): 67%

O=C(O)Cn1cnc2c(oc3ccccc32)c1=O
Kd (Protein deacetylase HDAC6, ZnF-UBD domain (HDAC6, Homo sapiens, UniProt Q9UBN7)): 247 µM

CN[C@@H]1COc2c(S(=O)(=O)NC(=O)Nc3c4c(cc5c3CCC5)CCC4)cnn2C1
inhibition (measured: IL-1β; human participants, whole blood ex vivo; 1800 mg single dose, 24 h, with: LPS/ATP; reference: baseline): 98.9%

Repeated from above:
O=C(O)CNC(=O)Cc1ccccc1
sarcomere length (ventricular cardiomyocytes, C57BL/6 mouse; dose not given, 0.228 s): 1.63 µm
